# Experimental data of several laboratories.
# ± marks the error that the study gave.
# Calcitonin-gene-related peptide receptor, CALCRL/RAMP1: Calcitonin-gene-related peptide receptor, CALCRL/RAMP1 (Homo sapiens, UniProt O60894+Q16602)
# Sequence of UniProt Q16602 (whole entry, looked up): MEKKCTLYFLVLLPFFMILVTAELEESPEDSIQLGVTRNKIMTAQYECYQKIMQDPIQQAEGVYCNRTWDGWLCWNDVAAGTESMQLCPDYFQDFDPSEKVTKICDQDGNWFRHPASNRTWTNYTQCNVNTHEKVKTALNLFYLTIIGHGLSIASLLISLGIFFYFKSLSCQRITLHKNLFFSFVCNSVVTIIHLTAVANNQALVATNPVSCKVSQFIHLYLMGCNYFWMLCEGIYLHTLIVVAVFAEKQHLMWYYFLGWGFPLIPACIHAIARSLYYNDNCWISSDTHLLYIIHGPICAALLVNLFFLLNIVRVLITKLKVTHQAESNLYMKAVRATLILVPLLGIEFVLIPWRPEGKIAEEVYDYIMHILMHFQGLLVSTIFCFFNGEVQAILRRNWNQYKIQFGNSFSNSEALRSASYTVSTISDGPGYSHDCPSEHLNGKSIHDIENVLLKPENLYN
# Sequence of UniProt O60894 (whole entry, looked up): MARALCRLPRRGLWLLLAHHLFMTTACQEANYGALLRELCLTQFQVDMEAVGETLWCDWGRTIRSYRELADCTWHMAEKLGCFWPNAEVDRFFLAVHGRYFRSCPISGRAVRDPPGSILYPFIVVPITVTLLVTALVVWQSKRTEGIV
# Sequence of UniProt P20309 (whole entry, looked up): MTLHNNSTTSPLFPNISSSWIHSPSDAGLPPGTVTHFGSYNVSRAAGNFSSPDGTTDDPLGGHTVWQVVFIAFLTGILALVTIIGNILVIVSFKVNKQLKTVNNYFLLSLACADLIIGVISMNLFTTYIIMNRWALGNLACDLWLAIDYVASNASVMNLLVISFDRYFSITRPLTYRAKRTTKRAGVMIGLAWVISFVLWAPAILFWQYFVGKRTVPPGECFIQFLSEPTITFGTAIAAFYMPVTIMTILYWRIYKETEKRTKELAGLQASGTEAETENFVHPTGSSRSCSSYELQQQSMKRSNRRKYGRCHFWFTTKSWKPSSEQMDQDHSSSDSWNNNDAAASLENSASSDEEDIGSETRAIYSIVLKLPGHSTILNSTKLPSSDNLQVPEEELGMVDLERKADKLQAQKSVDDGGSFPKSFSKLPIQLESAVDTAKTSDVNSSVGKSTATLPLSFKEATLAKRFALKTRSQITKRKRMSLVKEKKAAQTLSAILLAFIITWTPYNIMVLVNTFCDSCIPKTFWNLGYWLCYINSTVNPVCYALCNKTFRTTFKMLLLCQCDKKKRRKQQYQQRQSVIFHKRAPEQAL
# Sequence of UniProt O95665 (whole entry, looked up): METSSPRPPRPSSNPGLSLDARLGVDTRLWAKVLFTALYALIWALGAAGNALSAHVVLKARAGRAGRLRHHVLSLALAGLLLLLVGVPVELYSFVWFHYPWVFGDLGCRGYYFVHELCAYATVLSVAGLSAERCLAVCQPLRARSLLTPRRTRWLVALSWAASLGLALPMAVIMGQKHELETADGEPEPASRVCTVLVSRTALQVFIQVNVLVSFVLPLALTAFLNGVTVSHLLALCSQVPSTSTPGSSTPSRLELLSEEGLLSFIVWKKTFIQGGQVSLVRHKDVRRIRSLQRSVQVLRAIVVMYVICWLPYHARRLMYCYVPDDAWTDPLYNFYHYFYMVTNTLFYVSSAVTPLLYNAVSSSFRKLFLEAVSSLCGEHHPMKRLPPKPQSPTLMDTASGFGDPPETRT
# Sequence of UniProt P03303 (whole entry, looked up): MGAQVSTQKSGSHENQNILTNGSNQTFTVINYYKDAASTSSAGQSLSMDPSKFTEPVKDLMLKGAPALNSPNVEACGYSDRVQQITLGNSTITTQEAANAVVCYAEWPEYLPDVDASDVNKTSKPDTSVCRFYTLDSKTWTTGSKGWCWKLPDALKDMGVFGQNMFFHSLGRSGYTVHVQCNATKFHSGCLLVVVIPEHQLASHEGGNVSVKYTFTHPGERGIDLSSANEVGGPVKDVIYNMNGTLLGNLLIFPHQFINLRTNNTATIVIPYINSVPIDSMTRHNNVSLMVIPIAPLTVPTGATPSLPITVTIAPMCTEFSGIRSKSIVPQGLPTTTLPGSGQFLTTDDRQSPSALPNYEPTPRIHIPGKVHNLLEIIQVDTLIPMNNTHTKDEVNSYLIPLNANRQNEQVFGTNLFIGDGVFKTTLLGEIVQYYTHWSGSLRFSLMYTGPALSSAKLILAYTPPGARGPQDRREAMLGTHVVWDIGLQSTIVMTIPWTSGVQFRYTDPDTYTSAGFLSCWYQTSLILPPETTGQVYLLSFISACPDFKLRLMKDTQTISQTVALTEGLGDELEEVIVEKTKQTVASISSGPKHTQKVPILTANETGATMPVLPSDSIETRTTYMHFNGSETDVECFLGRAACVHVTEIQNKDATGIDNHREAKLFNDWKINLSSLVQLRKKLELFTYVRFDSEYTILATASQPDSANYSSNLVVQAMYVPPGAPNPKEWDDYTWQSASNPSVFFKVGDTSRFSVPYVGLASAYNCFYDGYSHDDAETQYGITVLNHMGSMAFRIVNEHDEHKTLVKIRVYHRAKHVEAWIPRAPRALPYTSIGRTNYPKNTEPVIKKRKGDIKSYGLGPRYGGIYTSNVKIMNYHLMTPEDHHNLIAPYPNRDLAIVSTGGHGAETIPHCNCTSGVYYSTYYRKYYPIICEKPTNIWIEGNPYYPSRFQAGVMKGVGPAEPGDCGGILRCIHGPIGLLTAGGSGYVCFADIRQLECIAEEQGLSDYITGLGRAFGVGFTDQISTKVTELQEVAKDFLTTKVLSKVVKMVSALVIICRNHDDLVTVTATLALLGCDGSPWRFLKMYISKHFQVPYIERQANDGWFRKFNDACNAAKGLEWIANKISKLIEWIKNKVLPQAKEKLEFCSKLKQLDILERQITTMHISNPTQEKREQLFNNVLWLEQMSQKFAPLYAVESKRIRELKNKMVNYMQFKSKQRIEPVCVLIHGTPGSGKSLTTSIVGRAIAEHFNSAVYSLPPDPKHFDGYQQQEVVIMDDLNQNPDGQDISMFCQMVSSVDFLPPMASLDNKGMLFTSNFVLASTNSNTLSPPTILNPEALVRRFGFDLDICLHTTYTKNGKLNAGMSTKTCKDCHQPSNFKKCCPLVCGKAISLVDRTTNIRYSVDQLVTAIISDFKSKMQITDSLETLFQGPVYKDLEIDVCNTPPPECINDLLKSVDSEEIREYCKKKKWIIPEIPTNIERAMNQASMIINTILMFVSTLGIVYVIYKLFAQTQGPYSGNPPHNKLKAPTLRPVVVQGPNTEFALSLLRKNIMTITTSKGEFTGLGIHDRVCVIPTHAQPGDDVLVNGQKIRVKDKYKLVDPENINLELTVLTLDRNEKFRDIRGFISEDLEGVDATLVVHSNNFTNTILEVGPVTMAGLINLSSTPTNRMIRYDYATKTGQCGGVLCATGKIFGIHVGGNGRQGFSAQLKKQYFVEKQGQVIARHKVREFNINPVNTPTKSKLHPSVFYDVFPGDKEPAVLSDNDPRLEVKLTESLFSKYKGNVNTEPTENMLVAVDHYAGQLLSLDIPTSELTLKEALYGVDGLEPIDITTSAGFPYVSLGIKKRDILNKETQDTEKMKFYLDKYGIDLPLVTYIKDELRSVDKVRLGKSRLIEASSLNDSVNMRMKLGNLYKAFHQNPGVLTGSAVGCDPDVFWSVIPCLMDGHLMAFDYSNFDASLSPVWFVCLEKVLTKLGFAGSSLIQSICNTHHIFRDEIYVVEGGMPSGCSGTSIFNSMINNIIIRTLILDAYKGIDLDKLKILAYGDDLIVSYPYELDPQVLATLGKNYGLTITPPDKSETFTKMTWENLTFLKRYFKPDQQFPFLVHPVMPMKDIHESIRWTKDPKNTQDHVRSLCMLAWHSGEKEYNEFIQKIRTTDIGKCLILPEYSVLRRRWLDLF
# Sequence of UniProt P28222 (whole entry, looked up): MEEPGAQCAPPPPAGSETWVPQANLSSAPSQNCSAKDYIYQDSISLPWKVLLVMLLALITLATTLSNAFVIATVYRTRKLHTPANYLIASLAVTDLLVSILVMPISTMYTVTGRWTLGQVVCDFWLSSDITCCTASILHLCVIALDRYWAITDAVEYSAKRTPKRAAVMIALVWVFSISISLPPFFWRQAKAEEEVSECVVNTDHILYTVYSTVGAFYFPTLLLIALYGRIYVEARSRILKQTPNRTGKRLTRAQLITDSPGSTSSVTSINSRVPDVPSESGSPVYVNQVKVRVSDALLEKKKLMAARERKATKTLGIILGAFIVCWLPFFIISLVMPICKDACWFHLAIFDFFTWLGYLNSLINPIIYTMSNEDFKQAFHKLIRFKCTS
# Sequence of UniProt P25100 (whole entry, looked up): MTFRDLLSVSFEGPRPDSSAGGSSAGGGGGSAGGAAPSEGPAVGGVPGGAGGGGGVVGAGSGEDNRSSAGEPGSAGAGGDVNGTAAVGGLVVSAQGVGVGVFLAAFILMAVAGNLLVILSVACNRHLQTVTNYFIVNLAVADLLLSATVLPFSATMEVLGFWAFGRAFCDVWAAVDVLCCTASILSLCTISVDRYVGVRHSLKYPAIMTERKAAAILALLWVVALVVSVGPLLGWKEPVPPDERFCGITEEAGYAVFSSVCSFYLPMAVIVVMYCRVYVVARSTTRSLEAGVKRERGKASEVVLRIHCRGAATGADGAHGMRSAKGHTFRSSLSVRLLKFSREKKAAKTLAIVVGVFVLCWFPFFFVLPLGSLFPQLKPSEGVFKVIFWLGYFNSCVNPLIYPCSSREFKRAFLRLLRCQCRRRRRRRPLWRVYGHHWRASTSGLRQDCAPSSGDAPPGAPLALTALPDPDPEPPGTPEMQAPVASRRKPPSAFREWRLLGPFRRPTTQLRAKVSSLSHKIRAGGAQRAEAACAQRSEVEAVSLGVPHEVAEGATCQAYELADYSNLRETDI
Compound,target,test,system,setting,endpoint,value
C[C@@H](Cc1ccsc1)NC(=O)NC[C@H](Cc1ccc(O)cc1)N(C)C,"Muscarinic acetylcholine receptor M3 (CHRM3, Homo sapiens, UniProt P20309)",,,,Ki,3900 ± 1600 nM
CN(C)S(=O)(=O)c1ccc2nnn(OCc3cccc4cccnc34)c2c1,"Genome polyprotein, 3C protease (rhinovirus B14, UniProt P03303)","protease activity, inhibitor, SAMDI-MS",,,IC50,> 100000 nM
O=C1c2ccccc2CCCN1CCCCN1CCN(c2cccc(Cl)c2Cl)CC1,"Alpha-1D adrenergic receptor (ADRA1D, Homo sapiens, UniProt P25100)","ligand displacement, radioligand",,,Ki,210 nM
COc1cc2c(cc1O)C(CCc1ccc(Cl)cc1)N(C)CC2 (stereo not drawn),"D(1B) dopamine receptor (DRD5, Homo sapiens, UniProt P21918)","cell-free assay, radioligand",,,Ki,200 nM
Cc1cc(O)cc(C)c1C[C@H](N)C(=O)N[C@H](CCCNC(=N)N)C(=O)N[C@@H](Cc1ccccc1)C(=O)N(C)CC(=O)N(C)Cc1cc(C(F)(F)F)cc(C(F)(F)F)c1,"Delta-type opioid receptor (OPRD1, Homo sapiens, UniProt P41143, N131S)",,,,Ki,7.45 ± 0.56 nM
CN(C)[C@H](CNC(=O)/C=C/c1cccc2ccccc12)Cc1ccc(O)cc1,"Neurotensin receptor type 2 (NTSR2, Homo sapiens, UniProt O95665)",,,,Ki,> 50000 nM
CSCC[C@H](NC(=O)[C@H](CCC(N)=O)NC(=O)[C@H](CCCCN)NC(=O)[C@H](CCCNC(=N)N)NC(=O)[C@H](Cc1ccc(O)cc1)NC(=O)[C@H](CCCNC(=N)N)NC(=O)[C@H](CO)NC(=O)[C@H](Cc1ccc(O)cc1)NC(=O)[C@H](CO)NC(=O)[C@H](CC(=O)O)NC(=O)[C@@H](NC(=O)[C@@H](N)Cc1ccccc1)[C@@H](C)O)C(=O)N[C@@H](C)C(=O)N[C@H](C(=O)N[C@@H](CCCCN)C(=O)N[C@@H](CCCCN)C(=O)N[C@@H](Cc1ccc(O)cc1)C(=O)N[C@@H](CC(C)C)C(=O)N[C@@H](C)C(=O)N[C@@H](C)C(=O)N[C@H](C(=O)N[C@@H](CC(C)C)C(=O)NCC(=O)N[C@@H](CCCCN)C(=O)N[C@@H](CCCNC(=N)N)C(=O)N[C@@H](Cc1ccc(O)cc1)C(=O)N[C@@H](CCCCN)C(=O)N[C@@H](CCC(N)=O)C(=O)N[C@@H](CCCNC(=N)N)C(=O)N[C@H](C(=O)N[C@@H](CCCCN)C(=O)N[C@@H](CC(N)=O)C(=O)N[C@@H](CCCCn1cc(C[C@H](NC(=O)CNC(=O)[C@H](CO)NC(=O)[C@H](CCCNC(=N)N)NC(=O)[C@H](CO)NC(=O)[C@H](CC(C)C)NC(=O)[C@H](CC(C)C)NC(=O)CNC(=O)[C@H](C)NC(=O)[C@H](CC(C)C)NC(=O)[C@H](CCCNC(=N)N)NC(=O)[C@H](Cc2c[nH]cn2)NC(=O)[C@@H](NC(=O)[C@@H](N)C(C)C)[C@@H](C)O)C(=O)N[C@H](C(=O)N[C@H](C(=O)N[C@@H](CCCCN)C(=O)N[C@@H](CC(N)=O)C(=O)N[C@@H](CC(N)=O)C(=O)N[C@@H](Cc2ccccc2)C(=O)N[C@H](C(=O)N2CCC[C@H]2C(=O)N[C@H](C(=O)N[C@@H](CC(N)=O)C(=O)N[C@H](C(=O)NCC(=O)N[C@@H](CO)C(=O)N[C@@H](CCCCN)C(=O)N[C@@H](C)C(=O)N[C@@H](Cc2ccccc2)C(N)=O)C(C)C)[C@@H](C)O)C(C)C)C(C)C)C(C)C)nn1)C(N)=O)C(C)C)C(C)C)C(C)C,"Calcitonin-gene-related peptide receptor, CALCRL/RAMP1","cAMP accumulation, antagonist, LANCE cAMP","COS-7 cells, transfected",15 min,Kb,1 nM
Cc1cccc(/N=N/c2cccc([B-](F)(F)F)c2)c1,"Chymotrypsinogen A (Bos taurus, UniProt P00766)","enzyme activity, competitive inhibitor",buffer with 2 vol% DMSO,"pH 7.81, 25 °C, thermally adapted trans state, with: Suc-AAPF-AMC",Ki,162000 nM
O=C(O)CCn1c(=O)oc2cc(Cl)c(Cl)cc21,"5-hydroxytryptamine receptor 1B (HTR1B, Homo sapiens, UniProt P28222)",antagonist,,median value,IC50,> 100000 nM
Cc1cc(C(c2ccc(Cl)cc2)c2ccc(Cl)cc2)sc1C(=O)N[C@@H](CCCNC(=N)N)C(=O)O,"C3a anaphylatoxin chemotactic receptor (C3ar1, Mus musculus, UniProt O09047)","GoA dissociation, agonist, NanoBiT G-protein",,,EC50,2.51 nM
CSCC[C@H](NC(=O)[C@H](CCC(N)=O)NC(=O)[C@H](CCCCN)NC(=O)[C@H](CCCNC(=N)N)NC(=O)[C@H](Cc1ccc(O)cc1)NC(=O)[C@H](CCCNC(=N)N)NC(=O)[C@H](CO)NC(=O)[C@H](Cc1ccc(O)cc1)NC(=O)[C@H](CO)NC(=O)[C@H](CC(=O)O)NC(=O)[C@@H](NC(=O)[C@@H](N)Cc1ccccc1)[C@@H](C)O)C(=O)N[C@@H](C)C(=O)N[C@H](C(=O)N[C@@H](CCCCN)C(=O)N[C@@H](CCCCN)C(=O)N[C@@H](Cc1ccc(O)cc1)C(=O)N[C@@H](CC(C)C)C(=O)N[C@@H](C)C(=O)N[C@@H](C)C(=O)N[C@H](C(=O)N[C@@H](CC(C)C)C(=O)NCC(=O)N[C@@H](CCCCN)C(=O)N[C@@H](CCCNC(=N)N)C(=O)N[C@@H](Cc1ccc(O)cc1)C(=O)N[C@@H](CCCCN)C(=O)N[C@@H](CCC(N)=O)C(=O)N[C@@H](CCCCn1cc(C[C@H](NC(=O)CNC(=O)[C@H](CO)NC(=O)[C@H](CCCNC(=N)N)NC(=O)[C@H](CO)NC(=O)[C@H](CC(C)C)NC(=O)[C@H](CC(C)C)NC(=O)CNC(=O)[C@H](C)NC(=O)[C@H](CC(C)C)NC(=O)[C@H](CCCNC(=N)N)NC(=O)[C@H](Cc2c[nH]cn2)NC(=O)[C@@H](NC(=O)[C@@H](N)C(C)C)[C@@H](C)O)C(=O)N[C@H](C(=O)N[C@H](C(=O)N[C@@H](CCCCN)C(=O)N[C@@H](CC(N)=O)C(=O)N[C@@H](CC(N)=O)C(=O)N[C@@H](Cc2ccccc2)C(=O)N[C@H](C(=O)N2CCC[C@H]2C(=O)N[C@H](C(=O)N[C@@H](CC(N)=O)C(=O)N[C@H](C(=O)NCC(=O)N[C@@H](CO)C(=O)N[C@@H](CCCCN)C(=O)N[C@@H](C)C(=O)N[C@@H](Cc2ccccc2)C(N)=O)C(C)C)[C@@H](C)O)C(C)C)C(C)C)C(C)C)nn1)C(=O)N[C@H](C(=O)N[C@@H](CCCCN)C(=O)N[C@@H](CC(N)=O)C(=O)N[C@@H](CCCCN)C(N)=O)C(C)C)C(C)C)C(C)C,"Calcitonin-gene-related peptide receptor, CALCRL/RAMP1","cAMP accumulation, antagonist, LANCE cAMP","COS-7 cells, transfected",15 min,Kb,1 nM
CC(C)[C@H](NC(=O)[C@@H]1CSSC(C)(C)[C@H](NC(=O)[C@@H](N)CC(=O)O)C(=O)N[C@@H](Cc2ccccc2)C(=O)N[C@@H](Cc2c[nH]c3ccccc23)C(=O)N[C@@H](CCCCN)C(=O)N[C@@H](Cc2ccc(O)cc2)C(=O)N1)C(=O)O,"Urotensin-2 receptor (UTS2R, Homo sapiens, UniProt Q9UKP6, V159A)","IP1 accumulation, agonist, HTRF",HEK293T cells,"1 h, 37 °C",EC50,0.398 nM

# A few entries again:
Compound,target,test,system,setting,endpoint,value
CSCC[C@H](NC(=O)[C@H](CCC(N)=O)NC(=O)[C@H](CCCCN)NC(=O)[C@H](CCCNC(=N)N)NC(=O)[C@H](Cc1ccc(O)cc1)NC(=O)[C@H](CCCNC(=N)N)NC(=O)[C@H](CO)NC(=O)[C@H](Cc1ccc(O)cc1)NC(=O)[C@H](CO)NC(=O)[C@H](CC(=O)O)NC(=O)[C@@H](NC(=O)[C@@H](N)Cc1ccccc1)[C@@H](C)O)C(=O)N[C@@H](C)C(=O)N[C@H](C(=O)N[C@@H](CCCCN)C(=O)N[C@@H](CCCCN)C(=O)N[C@@H](Cc1ccc(O)cc1)C(=O)N[C@@H](CC(C)C)C(=O)N[C@@H](C)C(=O)N[C@@H](C)C(=O)N[C@H](C(=O)N[C@@H](CC(C)C)C(=O)NCC(=O)N[C@@H](CCCCN)C(=O)N[C@@H](CCCNC(=N)N)C(=O)N[C@@H](Cc1ccc(O)cc1)C(=O)N[C@@H](CCCCN)C(=O)N[C@@H](CCC(N)=O)C(=O)N[C@@H](CCCCn1cc(C[C@H](NC(=O)CNC(=O)[C@H](CO)NC(=O)[C@H](CCCNC(=N)N)NC(=O)[C@H](CO)NC(=O)[C@H](CC(C)C)NC(=O)[C@H](CC(C)C)NC(=O)CNC(=O)[C@H](C)NC(=O)[C@H](CC(C)C)NC(=O)[C@H](CCCNC(=N)N)NC(=O)[C@H](Cc2c[nH]cn2)NC(=O)[C@@H](NC(=O)[C@@H](N)C(C)C)[C@@H](C)O)C(=O)N[C@H](C(=O)N[C@H](C(=O)N[C@@H](CCCCN)C(=O)N[C@@H](CC(N)=O)C(=O)N[C@@H](CC(N)=O)C(=O)N[C@@H](Cc2ccccc2)C(=O)N[C@H](C(=O)N2CCC[C@H]2C(=O)N[C@H](C(=O)N[C@@H](CC(N)=O)C(=O)N[C@H](C(=O)NCC(=O)N[C@@H](CO)C(=O)N[C@@H](CCCCN)C(=O)N[C@@H](C)C(=O)N[C@@H](Cc2ccccc2)C(N)=O)C(C)C)[C@@H](C)O)C(C)C)C(C)C)C(C)C)nn1)C(=O)N[C@H](C(=O)N[C@@H](CCCCN)C(=O)N[C@@H](CC(N)=O)C(=O)N[C@@H](CCCCN)C(N)=O)C(C)C)C(C)C)C(C)C,"Calcitonin-gene-related peptide receptor, CALCRL/RAMP1","cAMP accumulation, antagonist, LANCE cAMP","COS-7 cells, transfected",15 min,Kb,1 nM
